Results pooled from the literature.
± gives the spread as reported.

SMILES | test | test system | conditions | scale | quantity | result
O=c1[nH]c(=O)c(Cc2cccc(C(F)(F)F)c2)c([C@H]2CC[C@H](c3ccccc3)CC2)[nH]1 | – | human, plasma | oral, 900 mg once daily, day 7, geometric mean | – | AUC(0-tau) | 9750 ng·h/mL
COc1cccc(-c2ccc(NC(=O)C3=C(C(=O)O)CCC3)c(F)c2)c1 | – | human, male, fed, plasma | oral, 10 mg, single dose, geometric mean | – | AUC(0-24h) | 24200 ng·h/mL
CCCC[C@H](NC(C)=O)C(=O)N[C@H]1CCC(=O)NC[C@@H](C(=O)N[C@@H](Cc2c[nH]c3ccccc23)C(N)=O)NC(=O)[C@H](CCCNC(=N)N)NC(=O)[C@@H](Cc2ccccc2)NC(=O)[C@H](Cc2c[nH]cn2)NC1=O | – | beagle dog, female, plasma | subcutaneous, 1.5 mg/kg daily, day 14 | – | Cmax | 128 ng/mL
Cn1c(=O)c2c(ncn2C)n(C)c1=O | mitochondrial swelling | BALB/cByJ female mouse liver mitochondria | 30 min, added: succinate + rotenone | baseline: CaCl2 maximal swelling | EC20 | > 400 µM
Cc1nc2cccc(OCC(C)(C)C(=O)NC(C)C)c2c(N)c1C(=O)O | – | male Sprague-Dawley rat, plasma | dietary, 30 mg/kg/day, day 90 | – | Tmax | 0 h
O=C(O)c1cccc(CN2CN(C3CCCCC3)C3(CCN(CCCC(=O)c4ccccc4)CC3)C2=O)c1 | – | rat Sprague Dawley female | 300 mg/kg/day, 4 to 8 min after start, second session | – | rearing activity | 4 counts
O=C([O-])CN1CCN(CC(=O)[O-])CCN(CC(=O)[O-])CCN(CC(=O)[O-])CC1.[67Ga+3] | RP-TLC | murine plasma | 24 h, 37 °C, 5% CO2 | – | intact radiolabelled complex | 95.5 ± 0.4%
CNS(=O)(=O)Cc1ccc2[nH]cc(CCN(C)C)c2c1 | cytochrome c release, ELISA | BALB/cByJ female mouse liver mitochondria | 30 min | baseline: alamethicin maximal release | EC20 | > 400 µM
CNCc1ccc(-c2[nH]c3cc(F)cc4c3c2CCNC4=O)cc1 | – | human patients, plasma | oral, 360 mg twice daily, day 1, 12 h, arithmetic mean | – | AUC(0-t) | 4860 ng·h/mL
C=C1/C(=C\C=C2/CCC[C@]3(C)[C@@H]([C@H](C)CCCC(C)(C)O)CC[C@@H]23)C[C@@H](O)C[C@@H]1O | – | rat | intraperitoneal, 2.56 nmol/kg/day for four days | – | body weight | 288 ± 19.4 g
COc1c(N2C[C@@H]3CCCN[C@@H]3C2)c(F)cc2c(=O)c(C(=O)O)cn(C3CC3)c12 | – | healthy adults | oral, 400 mg single dose | – | subjects with adverse events | 41.9%
CCCCC1(CCCC)CN(c2ccccc2)c2cc(SC)c(OCC(=O)N[C@@H](C(=O)NCC(=O)O)c3ccccc3)cc2S(=O)(=O)C1 | – | human, plasma | oral, 15 mg, no breakfast | – | AUC(0-t) | 8 ng·h/mL
CNC(=O)c1ccc(-c2cnc3ncc(Cc4ccc5ncccc5c4)n3n2)cc1F | – | human, mild hepatic impairment (Child-Pugh A), plasma | oral, 200 mg single dose | – | Vz/F (mean) | 366 L
Cn1cnc2c(F)c(Nc3ccc(Br)cc3Cl)c(C(=O)NOCCO)cc21 | item: N-desmethyl metabolite | human | oral | baseline: steady state over single dose | fraction metabolised ratio | ~0.73
Cc1cc2nc3c(=O)[nH]c(=O)nc-3n(C[C@H](O)[C@H](O)[C@H](O)CO)c2cc1C | mitochondrial swelling | BALB/cByJ female mouse liver mitochondria | 30 min, added: succinate + rotenone | baseline: CaCl2 maximal swelling | EC20 | 672 µM

Repeated from above:
SMILES | test | test system | conditions | scale | quantity | result
O=C([O-])CN1CCN(CC(=O)[O-])CCN(CC(=O)[O-])CCN(CC(=O)[O-])CC1.[67Ga+3] | RP-TLC | murine plasma | 24 h, 37 °C, 5% CO2 | – | intact radiolabelled complex | 95.5 ± 0.4%
Cn1cnc2c(F)c(Nc3ccc(Br)cc3Cl)c(C(=O)NOCCO)cc21 | item: N-desmethyl metabolite | human | oral | baseline: steady state over single dose | fraction metabolised ratio | ~0.73
CCCCC1(CCCC)CN(c2ccccc2)c2cc(SC)c(OCC(=O)N[C@@H](C(=O)NCC(=O)O)c3ccccc3)cc2S(=O)(=O)C1 | – | human, plasma | oral, 15 mg, no breakfast | – | AUC(0-t) | 8 ng·h/mL
